Measured values collected from several papers.

| Structure (SMILES) | organism | assay | system | conditions | MIC |
| --- | --- | --- | --- | --- | --- |
| OB(O)c1ccc(OCc2ccccc2)nc1F | Klebsiella aerogenes | bacterial growth | AmpC-overproducing clinical isolate | cefotaxime alone | 8 µg/mL |
| CC[C@H](C)[C@@H]1NC(=O)CNC(=O)[C@H](CCCCN)NC(=O)[C@H](C)NC(=O)[C@H](CCC(=O)O)NC(=O)[C@H](Cc2ccccc2)NC(=O)[C@H](CO)NC(=O)[C@H](CC(C)C)NC(=O)[C@H](C(C)C)NC(=O)[C@H](CC(=O)O)NC(=O)[C@@H](NC(=O)[C@@H](NC(=O)[C@@H](N)C(C)C)[C@@H](C)O)CSSC[C@@H]2NC(=O)[C@H](CO)NC(=O)CNC(=O)CNC(=O)[C@H](CCCCN)NC(=O)[C@H](CCCCN)NC(=O)[C@H](CCCNC(=N)N)NC(=O)[C@H](CC(C)C)NC(=O)[C@H](C)NC(=O)[C@H]([C@@H](C)CC)NC(=O)[C@H](CSSC[C@@H](C(=O)N[C@@H](CCCNC(=N)N)C(=O)N[C@@H](CC(N)=O)C(=O)O)NC(=O)[C@H](C(C)C)NC(=O)[C@H](C)NC(=O)[C@H](C(C)C)NC(=O)CNC(=O)[C@H](CC(N)=O)NC(=O)[C@H](CCC(N)=O)NC2=O)NC(=O)[C@H](Cc2c[nH]cn2)NC(=O)[C@H](CC(C)C)NC(=O)[C@H](C)NC(=O)[C@H](C)NC(=O)[C@H](C)NC(=O)[C@H](CO)NC(=O)[C@H](Cc2c[nH]cn2)NC(=O)[C@H](CC(N)=O)NC(=O)[C@H](C(C)C)NC(=O)[C@H](C)NC1=O | Candida parapsilosis | broth microdilution | ATCC 22019 | 28 °C | 12.5 to 25 µM |
| CC[C@H](C)[C@H](NC(=O)[C@@H](NC(=O)CN)C(C)C)C(=O)N[C@@H](Cc1ccccc1)C(=O)N[C@@H](CC(N)=O)C(=O)N[C@@H](C)C(=O)N[C@@H](CC(C)C)C(=O)N[C@@H](CCCCN)C(=O)NCC(=O)N[C@H](C(=O)N[C@@H](C)C(=O)N[C@@H](CCCCN)C(=O)N[C@H](C(=O)N[C@H](C(=O)N[C@@H](C)C(=O)N[C@@H](C)C(=O)N[C@@H](CCC(N)=O)C(=O)N[C@@H](CC(C)C)C(=O)N[C@@H](CC(C)C)C(=O)N[C@@H](CCCCN)C(=O)N[C@@H](CCCCN)C(=O)N[C@@H](C)C(=O)N[C@@H](CCCNC(=N)N)C(=O)N[C@H]1CSSC[C@@H](C(=O)O)NC(=O)[C@H](CO)NC(=O)[C@H](CCCCN)NC(=O)[C@H](CC(=O)O)NC(=O)[C@H](CC(C)C)NC(=O)[C@H](CCCCN)NC1=O)C(C)C)[C@@H](C)O)C(C)C | Staphylococcus aureus | – | MRSA NCTC 12493, Mueller-Hinton broth | with: FeCl3 4 mM | 2 µM |
| O=C(NCc1nc(-c2ccc(Br)cc2)c[nH]1)Nc1ncc(Sc2ccccn2)s1 | Bacteroides fragilis | broth microdilution | ATCC 25285 | with: verapamil 50 µg/mL | > 128 µM |
| [O-][N+]1=C(Cc2ccccc2)C2=NCCCN2c2ccccc21 | Porphyromonas asaccharolytica | – | – | – | 2 µg/mL |
| CCCCc1ccc(-c2nc(C)c(C(C)=NNC(=N)N)s2)cc1 | Staphylococcus aureus | – | USA300 MRSA | – | 1.3 µg/mL |
| O.O=[N+]([O-])[O-].O=c1cc[nH]c(=S)[nH]1.[Ag+].c1ccc(P(c2ccccc2)c2ccccc2)cc1.c1ccc(P(c2ccccc2)c2ccccc2)cc1 | Shigella flexneri | agar dilution | MTCC 1457, Mueller Hinton agar | 24 h, 37 °C | 7 µg/mL |
| CCCCCCCCC/C=C\CCCc1cc(=O)c2ccccc2n1C | Mycolicibacterium smegmatis | spot culture on 7H10 agar | mc2 155 | 3 days, 37 °C | 10 µg/mL |
| C[N+]1=C2C(c3ccc([N+](=O)[O-])cc3)=[N+]([O-])c3ccccc3N2CCC1 | Bacteroides fragilis | microbial growth | ATCC25285 | – | 1 µg/mL |
| CC(C)C[C@H](NC(=O)[C@H](CCCNC(=N)N)NC(=O)[C@H](CCC(N)=O)NC(=O)[C@H](Cc1c[nH]cn1)NC(=O)[C@@H](NC(=O)[C@H](CCCNC(=N)N)NC(=O)[C@H](CC(C)C)NC(=O)[C@H](CCC(=O)O)NC(=O)[C@H](CO)NC(=O)[C@H](CCCNC(=N)N)NC(=O)[C@@H](N)CO)C(C)C)C(=O)N[C@@H](Cc1ccccc1)C(N)=O | Candida parapsilosis | broth microdilution | RPMI MOPS-buffered | – | > 400 µg/mL |
| CC[C@H](C)[C@@H]1NC(=O)CNC(=O)[C@H](CCCCN)NC(=O)[C@H](C)NC(=O)[C@H](CCC(=O)O)NC(=O)[C@H](Cc2ccccc2)NC(=O)[C@H](CO)NC(=O)[C@H](CC(C)C)NC(=O)[C@H](C(C)C)NC(=O)[C@H](CC(=O)O)NC(=O)[C@@H](NC(=O)[C@@H](NC(=O)[C@@H](N)C(C)C)[C@@H](C)O)CSSC[C@@H]2NC(=O)[C@H](CO)NC(=O)CNC(=O)CNC(=O)[C@H](CCCCN)NC(=O)[C@H](CCCCN)NC(=O)[C@H](CCCNC(=N)N)NC(=O)[C@H](CC(C)C)NC(=O)[C@H](C)NC(=O)[C@H]([C@@H](C)CC)NC(=O)[C@H](C)NC(=O)[C@H](Cc3c[nH]cn3)NC(=O)[C@H](CC(C)C)NC(=O)[C@H](C)NC(=O)[C@H](CSSC[C@@H](C(=O)N[C@H](C(=O)N[C@@H](C)C(=O)N[C@@H](CCCNC(=N)N)C(=O)N[C@@H](CC(N)=O)C(=O)O)C(C)C)NC(=O)[C@H](C(C)C)NC(=O)CNC(=O)[C@H](CC(N)=O)NC(=O)[C@H](CCC(N)=O)NC2=O)NC(=O)[C@H](C)NC(=O)[C@H](CO)NC(=O)[C@H](Cc2c[nH]cn2)NC(=O)[C@H](CC(N)=O)NC(=O)[C@H](C(C)C)NC(=O)[C@H](C)NC1=O | Candida parapsilosis | broth microdilution | ATCC 22019 | 28 °C | 12.5 µM |
| C[N+]1=C2C(c3ccc(Cl)cc3)=[N+]([O-])c3ccccc3N2CCC1 | Bacteroides fragilis | microbial growth | ATCC25285 | – | 4 µg/mL |
| COC1C=COC2(C)Oc3c(C)c(O)c4c(c3C2=O)C2=NC3(CCN(CC(C)C)CC3)NC2=C(NC(=O)C(C)=CC=CC(C)C(O)C(C)C(O)C(C)C(OC(=O)Nc2cnccn2)C1C)C4=O (centres unmarked) | Mycobacteroides abscessus | – | ATCC 19977 arr knockout | – | 0.024 µM |
| C[N+]1=C2C(c3ccccc3)=[N+]([O-])c3ccccc3N2CCC1 | Porphyromonas asaccharolytica | – | – | – | 4 µg/mL |
| CC[C@H](C)[C@H](NC(=O)[C@H](CC(C)C)NC(=O)[C@H](CCC(N)=O)NC(=O)[C@H](CO)NC(=O)[C@H](CCCNC(=N)N)NC(=O)[C@@H](N)CO)C(=O)N[C@H](C(=O)N[C@@H](Cc1c[nH]cn1)C(=O)N[C@@H](CCC(N)=O)C(=O)N[C@@H](CCCNC(=N)N)C(=O)N[C@@H](CC(C)C)C(=O)N[C@@H](Cc1ccccc1)C(N)=O)C(C)C | Candida parapsilosis | broth microdilution | RPMI MOPS-buffered | – | > 400 µg/mL |
| COc1ccc(C2=[N+]([O-])c3ccccc3N3CCCN=C23)cc1 | Porphyromonas gingivalis | microbial growth | ATCC33277 | – | ≤ 0.06 µg/mL |
| Cc1ccc(C2OC(c3ccc(C)cc3)C(C)C(=NOCc3cn(-c4ccccc4)nn3)C2C)cc1 (centres unmarked) | Aspergillus niger | microbial growth | – | – | 12.5 µg/mL |
